Published values from different studies.
Compare with care: the assays were run in different laboratories. Values joined by “and” are separate records of one study, mostly repeats; a detail may differ. ± marks the error that the study gave.
B1: human SCYL2; sequence looked up; chain MESMLNKLKSTVTKVTADVTSAVMGNPVTREFDVGRHIASGGNGLAWKIFNGTKKSTKQEVAVFVFDKKLIDKYQKFEKDQIIDSLKRGVQQLTRLRHPRLLTVQHPLEESRDCLAFCTEPVFASLANVLGNWENLPSPISPDIKDYKLYDVETKYGLLQVSEGLSFLHSSVKMVHGNITPENIILNKSGAWKIMGFDFCVSSTNPSEQEPKFPCKEWDPNLPSLCLPNPEYLAPEYILSVSCETASDMYSLGTVMYAVFNKGKPIFEVNKQDIYKSFSRQLDQLSRLGSSSLTNIPEEVREHVKLLLNVTPTVRPDADQMTKIPFFDDVGAVTLQYFDTLFQRDNLQKSQFFKGLPKVLPKLPKRVIVQRILPCLTSEFVNPDMVPFVLPNVLLIAEECTKEEYVKLILPELGPVFKQQEPIQILLIFLQKMDLLLTKTPPDEIKNSVLPMVYRALEAPSIQIQELCLNIIPTFANLIDYPSMKNALIPRIKNACLQTSSLAVRVNSLVCLGKILEYLDKWFVLDDILPFLQQIPSKEPAVLMGILGIYKCTFTHKKLGITKEQLAGKVLPHLIPLSIENNLNLNQFNSFISVIKEMLNRLESEHKTKLEQLHIMQEQQKSLDIGNQMNVSEEMKVTNIGNQQIDKVFNNIGADLLTGSESENKEDGLQNKHKRASLTLEEKQKLAKEQEQAQKLKSQQPLKPQVHTPVATVKQTKDLTDTLMDNMSSLTSLSVSTPKSSASSTFTSVPSMGIGMMFSTPTDNTKRNLTNGLNANMGFQTSGFNMPVNTNQNFYSSPSTVGVTKMTLGTPPTLPNFNALSVPPAGAKQTQQRPTDMSALNNLFGPQKPKVSMNQLSQQKPNQWLNQFVPPQGSPTMGSSVMGTQMNVIGQSAFGMQGNPFFNPQNFAQPPTTMTNSSSASNDLKDLFG
B2: recombinant human GDNF; sequence looked up; chain SPDKQMAVLPRRERNRQAAAANPENSRGKGRRGQRGKNRGCVLTAIHLNVTDLGLGYETKEELIFRYCSGSCDAAETTYDKILKNLSRNRRLVSDKVGQACCRPIAFDDDLSFLDDNLVYHILRKHSAKRCGCI
B3: interferon gamma; sequence looked up; chain QDPYVKEAENLKKYFNAGHSDVADNGTLFLGILKNWKEESDRKIMQSQIVSFYFKLFKNFKDDQSIQKSVETIKEDMNVKFFNSNKKKRDDFEKLTNYSVTDLNVQRKAIHELIQVMAELSPAAKTGKRKRSQMLFRG

Molecule | tested on | test | test system | conditions | scale | endpoint | result
maraviroc | – | ELISA, measured: sRAGE | mouse, non-infected, serum | dose not given | relative to: PBS control | fold change | 1.9 fold
B1 (human SCYL2) | CYB5R4 knockout human cells | PP4 interaction, 3xFLAG-PP4C IP-MS | – | concentration not given | relative to: CYB5R4 KO over parental | log2 fold change | 0.81
GRKKRRQRRRPQ | – | fear memory recall | peptide, mouse | retro-orbital, dose not given | – | effective concentration | ≥ 10 mM
liraglutide | – | – | Wistar rat, female, diet-induced obese, liver tissue | subcutaneous, dose not given, after 4 weeks treatment | – | liver cholesterol | 3.1 ± 0.6 mg/dL
EKVPESKVIFDANAPVAVRSKVPDSEF | – | Luminex, measured: IFN-γ | peptide, NOD-DR3 mice, peptide-immunized, splenocytes | dose not given, 48 h | – | interferon gamma secretion | > 1000 pg/mL
cotadutide | – | metabolomics, measured: hepatic methionine | ob/ob mice on AMLN diet, NASH model, liver | dose not given | – | metabolite level | 1.05 ± 0.08 scaled intensity
heparin sodium | – | – | human | intravenous infusion, 8 IU/kg/h, day 1 to 6 | relative to: baseline | AUEC of aPTT ratio | 149
semaglutide | – | – | DIO male Wistar rats | dose not given, 7 weeks | – | body weight | 604 ± 22 g
insulin degludec | – | euglycemic clamp | healthy human volunteers, C-peptide reduction at least 50%, serum | subcutaneous, 0.4 IU/kg | relative to: baseline | C-peptide reduction | 63.2 ± 9.47%
human RGPD4 | CYB5R4 knockout human cells | PP6 interaction, 3xFLAG-PP6C IP-MS | – | concentration not given | relative to: CYB5R4 KO over parental | log2 fold change | 0.49
Pam2CSK4 | – | – | APP/PS1 mouse, cortex | local injection, dose not given, unit not given | relative to: injected over adjacent side | GFAP level | 0.512 and 1.23 and 0.869
rifaximin | – | cell-free protein synthesis, inhibitor | Escherichia coli S30 extract | – | – | IC50 | 24 ± 6 nM
B2 (recombinant human GDNF) | – | CNN cell counting, measured: tyrosine hydroxylase | rat, 6-OHDA lesion model, substantia nigra pars compacta | 3 µg/24 h | relative to: lesioned over intact side | TH-immunoreactive cell ratio | 30.5 ± 5.1%
GWTLNSAGYLLGPHAVGNHRSFSDKNGLTS-NH2 (C-amide) | – | RT-qPCR, measured: Ocln | peptide, mouse, DSS-induced colitis, colon | ip, 3 µM, 3% DSS, unit not given | relative to: Gapdh | mRNA level | 1.48 and 2.3 and 3 and 1.62
difelikefalin | – | – | Japanese haemodialysis patients with pruritus | intravenous, 0.25 µg/kg, 8 weeks | – | PGIC very much worse | 0%
B3 (interferon gamma) | – | proteinuria inducer | FVB mice | dose not given, 48 h | – | urine albumin/creatinine ratio | 14.5 and 16.7 and 15.1 and 15.4 and 28.6 and 13.6 and 15.7 and 11.9

A few entries again:
Molecule | tested on | test | test system | conditions | scale | endpoint | result
rifaximin | – | cell-free protein synthesis, inhibitor | Escherichia coli S30 extract | – | – | IC50 | 24 ± 6 nM
B2 (recombinant human GDNF) | – | CNN cell counting, measured: tyrosine hydroxylase | rat, 6-OHDA lesion model, substantia nigra pars compacta | 3 µg/24 h | relative to: lesioned over intact side | TH-immunoreactive cell ratio | 30.5 ± 5.1%
